Measurements collected from several papers.
Numbered parts are unrelated; each lists some results of a single study. Changes are numbered by the printed parent chain.

Series 1
Molecule: PhoQ, residues 284 288 289 292 302 303 TAVSDG
Technique: Sort-seq
Item: YFP reporter
Sample: E. coli
Notes: PhoQ-PhoP variant library
Added: 10 µM Mg2+
Relative to: high Mg2+ state
Reading: higher = stronger signaling
| target | fold induction |
| --- | --- |
| PhoP, residues 12 14 15 18 19 STHWV (Escherichia coli, UniProt P23836) | 0.991 |
| PhoP, residues 12 14 15 18 19 QYCSL (Escherichia coli, UniProt P23836) | 5.5 |
| PhoP, residues 12 14 15 18 19 SHWTV (Escherichia coli, UniProt P23836) | 0.838 |

Series 2
Target: CCNB1, cyclin fold, Cln2 fusion (human)
Technique: yeast growth competition, sequencing
Sample: yeast
Notes: strong parent motif
Relative to: not given
Reading: higher = stronger binding
Starting sequence: PKN2 docking peptide (human); VSAVRKLDFSDTM
| Change | normalised enrichment score |
| --- | --- |
| VSAVRKLDFNDTM [S10N] | 3.69 |
| VSPVRKLDFSDTM [A3P] | 2.55 |
| VSAVRKLDCSDTM [F9C] | 0.0128 |
| VSAVRKLDGSDTM [F9G] | 0.241 |
| VSAVRKLDFSKTM [D11K] | 1.98 |
| VSAVRKLKFSDTM [D8K] | 1.48 |
| VSAVRKLDFGDTM [S10G] | 3.98 |
| VWAVRKLDFSDTM [S2W] | 3.42 |

Series 3
Target: ABI1, truncated, D143A, DHFR fusion (Arabidopsis thaliana)
Technique: DHFR PCA, deep sequencing
Sample: yeast
Notes: methotrexate growth selection, single substitutions
Added: (+)-ABA 0.032 µM
Relative to: wild-type fitted maximum
Reading: higher = stronger binding
Starting sequence: PYL1, truncated, DHFR fusion (Arabidopsis thaliana); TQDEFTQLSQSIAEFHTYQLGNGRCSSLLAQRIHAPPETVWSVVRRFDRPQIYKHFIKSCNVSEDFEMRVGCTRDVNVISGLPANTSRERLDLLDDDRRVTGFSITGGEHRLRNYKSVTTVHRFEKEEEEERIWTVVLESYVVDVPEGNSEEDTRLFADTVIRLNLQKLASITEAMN; partner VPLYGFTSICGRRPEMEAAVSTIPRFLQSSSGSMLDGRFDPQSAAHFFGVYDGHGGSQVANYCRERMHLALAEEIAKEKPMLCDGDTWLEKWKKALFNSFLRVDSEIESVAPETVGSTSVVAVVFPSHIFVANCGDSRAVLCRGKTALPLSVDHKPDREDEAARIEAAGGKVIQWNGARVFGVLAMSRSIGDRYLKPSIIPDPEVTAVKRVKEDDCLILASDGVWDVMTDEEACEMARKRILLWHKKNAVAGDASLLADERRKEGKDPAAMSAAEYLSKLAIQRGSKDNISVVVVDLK
| Change | relative binding score [%] |
| --- | --- |
| L8V | 4.48 |
| A170T | 1.04 |
| D48K | -2.08 |
| Q2H | 37 |
| K54A | 3.57 |
| D92G | 3.35 |
| S11R | 1.8 |

Series 4
Target: RNA binding protein fox-1 homolog 2, RRM domain, GST-SBP tag (RBFOX2, Homo sapiens, UniProt O43251-10, residues 100-194)
Technique: RNA Bind-n-Seq
Form: RNA
Sample: in vitro
Concentration: 365 nM
Notes: natural RNA segment, single round, ends assumed
Relative to: no-protein control
Reading: higher = stronger binding
Target sequence (chain): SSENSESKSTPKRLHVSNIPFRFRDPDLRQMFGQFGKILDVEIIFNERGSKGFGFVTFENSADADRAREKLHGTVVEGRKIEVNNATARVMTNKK
| Oligonucleotide | RBNS enrichment (R) |
| --- | --- |
| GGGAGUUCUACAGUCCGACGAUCCCACCGGCUCUGUCUUGGUCAGUGUUACCACUGCCAGCACUCAGGCUGUGGCAGAUGCCAGCAGCUCUUACCAUCAGUCAGAGUCUUCAGGGUGUCAAGCUGUUUUCAUUUGGAAUUCUCGGGUGCCAA | 0.321 |
| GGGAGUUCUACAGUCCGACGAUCAAGCUACAUUGGCAGCAGCGAAUGUUGCAGCUUCUUGUGCAAGUACACCCUUCAUGGAAGUGUUGACAUGUGCCAAAGGGUACUCUGCACAUCACUUCCUUCCUGAAAGCUGGAAUUCUCGGGUGCCAA | 0.238 |
| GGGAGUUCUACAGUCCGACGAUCCCAGCUUCAGUGUGCAGGCUCUGAGGCUGCCCAGGACGGGAAAGUCCAAGGAAGGGGCCUGGUGGUGCUCCACUUGCAGUUCUUUAAAGAAUGCUGCUUUUUAUUCUCCUUGGAAUUCUCGGGUGCCAA | 0.391 |
| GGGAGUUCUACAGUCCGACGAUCACUAUAUUCAUUUAGUCACUAUAGUGGAUCUCUUCUACUGCAAGUAUUCAUCUGAUUUUUAAAUUAUGUAAAAUGUAAAUCAGCCAAGUAUGUCAUCCGUUAUAGUUUCCUGGAAUUCUCGGGUGCCAA | 0.505 |
| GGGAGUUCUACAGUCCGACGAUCUUAAAUAGAAUACGGUUUUAAUUUUUGAUAAGCUGCUGAAUUUUAAAGAGAGUUUUUUGGGGCCACCAAAUAUUUUGGAUCAUGCAGAGAAUAUAUAUUGUACUGUAGUAUGGAAUUCUCGGGUGCCAA | 0.486 |
| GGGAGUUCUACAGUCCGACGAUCCACUUUCUCAAGAACAAGAACCUAGAAUGAAUAUCCAAGCACCUCGAGCUAUGCAACCUCUGUUCUUGUAUUUCUUAUGAUCUCUGAUGGGUUCUUCUCGAAAAUGCCAAUGGAAUUCUCGGGUGCCAA | 0.655 |
| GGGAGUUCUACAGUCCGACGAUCUUACUGGAAGGACAGGUUAACUGAAUGUCUGUGAUCACUAACAGGUGAUGGGCUUUGUGCCCACUCCAGAGAUAUUGUGGGAGACAAAUUCUUUUAACAGCCUGUCCUCCUGGAAUUCUCGGGUGCCAA | 0.325 |
| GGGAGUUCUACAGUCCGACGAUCCGAUUUUGAGUCCGAAUAAAGAAAGACCUAGUAACAGAUAGUUUUUUUUUGUUCAUUUUCUUCUACCAAGUAGAGGUUUAUGCCCUCAGAACUAAACUAGUAAAAAUAUCUGGAAUUCUCGGGUGCCAA | 0.37 |

A few entries again (series 2):
| Change | normalised enrichment score |
| --- | --- |
| VSAVRKLKFSDTM [D8K] | 1.48 |
| VSAVRKLDFGDTM [S10G] | 3.98 |
| VWAVRKLDFSDTM [S2W] | 3.42 |
